Measured values of several laboratories.
Each numbered part is a random draw from the data of one study; scales do not carry over between parts. Substitutions count along the parent as printed.

Study 1
Target: Ras GTPase-activating protein-binding protein 1, C-terminal RGG region (G3BP1, Homo sapiens, UniProt Q13283)
UniProt Q13283, sequence (whole entry, looked up): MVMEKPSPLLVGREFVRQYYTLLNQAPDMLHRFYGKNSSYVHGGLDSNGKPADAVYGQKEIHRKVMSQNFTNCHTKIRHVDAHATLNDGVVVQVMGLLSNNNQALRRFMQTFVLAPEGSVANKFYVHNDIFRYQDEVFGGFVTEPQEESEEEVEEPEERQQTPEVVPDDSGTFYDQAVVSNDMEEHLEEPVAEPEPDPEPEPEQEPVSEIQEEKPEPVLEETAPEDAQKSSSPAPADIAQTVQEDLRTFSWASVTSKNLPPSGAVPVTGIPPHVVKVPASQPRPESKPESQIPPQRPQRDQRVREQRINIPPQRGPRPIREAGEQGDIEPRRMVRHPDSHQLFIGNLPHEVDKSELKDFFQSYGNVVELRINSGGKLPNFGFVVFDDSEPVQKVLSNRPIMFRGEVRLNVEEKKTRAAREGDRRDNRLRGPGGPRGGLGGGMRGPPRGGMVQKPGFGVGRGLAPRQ
Technique: RNA Bind-n-Seq
Form: RNA
Sample: in vitro
Concentration: 1 µM
Setting: whole 134-nt RNA, ends assumed
Added: 150 mM KCl
Relative to: input library
Direction: higher = stronger binding
Endpoint: log2 enrichment
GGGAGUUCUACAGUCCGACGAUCCCUCAAGUCCUGUGCUACACAUCGUAUGUACCGAAUCGGGUGGUGGGGUGGGAAAGUAUUAUGUUACGCCGUUCGGAUCUGCACUUCCAGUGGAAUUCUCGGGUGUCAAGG: 0.779
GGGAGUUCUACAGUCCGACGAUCCACAGACAACACGCACCCACACAGACACAGAGGGAAGGGGUAAAGAUGGGGACAGGGUGCACAGCAGGGCGGGGUAGGACCCCAGCCCCUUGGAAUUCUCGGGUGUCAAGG: -0.15
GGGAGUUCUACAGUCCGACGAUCAGUCCUGUGCUACACAUCGUAUGUACCGAAUCGGUUUUUGGUUUUUGGUUUUUUUGGAAAGUAUUAUGUUACGCCGUUCGGAUCUGCACUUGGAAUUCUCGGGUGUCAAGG: -1.88
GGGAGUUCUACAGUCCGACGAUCGCAGGAAGUAAAAACAAAUGGAAAUGCUUCGGAUAGUGGCUGGGGUGGGGGUUGCUAAGGAAAGGGUGGGAUGGGAGUGGGUAAAGAGUUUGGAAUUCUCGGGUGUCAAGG: 0.612
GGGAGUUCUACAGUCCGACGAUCUGAACCUUCCAAUAGCAACCAAGAAAUAAACUCUGAUGACAGACGACCCCAAUGGAGACGAGAAGACCGAAUUCCUUACCAAGACAGAGAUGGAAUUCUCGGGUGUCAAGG: -0.861
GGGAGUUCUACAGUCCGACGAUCCACAGACAACACGCACCAAAACAGACACAGAGGGAAGGGGUUGGGAUGGGGACAGGGUGCACAGCAGGGCGGGGUAGGACCCCAGCCCCUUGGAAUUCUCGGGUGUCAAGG: -0.316
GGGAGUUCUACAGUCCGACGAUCCAAGUCCUGUGCUACACAUCGUAUGUACCGAAUCGGGGCCCGGCCCGGGCCCGGGAAAGUAUUAUGUUACGCCGUUCGGAUCUGCACUUCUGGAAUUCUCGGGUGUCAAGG: -2.09
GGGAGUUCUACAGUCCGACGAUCAGUCCUGUGCUACACAUCGUAUGUACCGAAUCGGGGAAAAAAAGGGGUGGGGAGGGGAAAGUAUUAUGUUACGCCGUUCGGAUCUGCACUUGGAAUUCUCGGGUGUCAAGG: 1.94
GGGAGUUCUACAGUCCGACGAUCAGUCCUGUGCUACACAUCGUAUGUACCGAAUCGGGUUUUGGGUUUUGGGGUUUUGGGGAAAGUAUUAUGUUACGCCGUUCGGAUCUGCACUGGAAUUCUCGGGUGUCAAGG: 1.2
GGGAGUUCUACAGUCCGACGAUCCAAGUCCUGUGCUACACAUCGUAUGUACCGAAUCGGUGGAAAAAAAGGAAAAAGGAAAGUAUUAUGUUACGCCGUUCGGAUCUGCACUUCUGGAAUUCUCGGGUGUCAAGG: -1.58

Study 2
Target: RNA binding protein fox-1 homolog 2, RRM domain, GST-SBP tag (RBFOX2, Homo sapiens, UniProt O43251-10, residues 100-194)
Technique: RNA Bind-n-Seq
Form: RNA
Sample: in vitro
Concentration: 365 nM
Setting: natural RNA segment, single round, ends assumed
Relative to: no-protein control
Direction: higher = stronger binding
Endpoint: RBNS enrichment (R)
Residues (chain): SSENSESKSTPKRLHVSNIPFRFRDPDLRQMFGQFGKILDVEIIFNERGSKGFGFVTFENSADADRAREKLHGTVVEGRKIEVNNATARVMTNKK
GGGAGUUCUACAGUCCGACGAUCAUAAUUUAAAAGGUUUAGUCGCCAAAAGCAGUUAAGUGGUGCAGUAAGAUAGUUAAGUUAUUCAAAGAGUGUUACCCUCCUUGCAAGAGUAACUGAAGCACAUUGGAAAGUGGAAUUCUCGGGUGCCAA: 0.796
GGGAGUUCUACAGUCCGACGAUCGCAUUUUACUUAAAUUUUACUGUUUGCAAGUAGUCUAUAGAAAUUUUGUUUUAAGUCUUCAAAUAUCUUGAGAAAUAGUAGACUGUAUGUUGAAAAUUGUACUGAAAUAAUGGAAUUCUCGGGUGCCAA: 0.503
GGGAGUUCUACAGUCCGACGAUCCUGUCCAGUAUGGAGGAACACUCACCUGGACUUGCAGUUGGACUUUGAACAUCAAGAUCAAAUUAGUGGAUGCUGUCGUCUCUUAAAGCUGGUUUUAUUUGUCUCUGGUCUGGAAUUCUCGGGUGCCAA: 0.429
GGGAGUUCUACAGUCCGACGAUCGUCCCCCAUCUUCCUUUUGGUCACCUUCAUCUGUGUGUCAGUUAAGACACAGUGAGGGACAGCCCAGCUGCAAUAAAAGGGAUUUUCUAUGUCAGAAGCAGCAGGCUUUGUGGAAUUCUCGGGUGCCAA: 0.394
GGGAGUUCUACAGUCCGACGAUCGUGUUGGAUGUUGUGGGCCUGGAGUCAAUAGGAACAUACAAUGUGUGUAGUGUCCGCUAAGGUUGCAGUUGGUCCCCUGCCCUGACUUCAUGCCCCAAGCCUCAGCUAUUUGGAAUUCUCGGGUGCCAA: 0.723
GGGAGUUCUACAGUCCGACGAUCAACAUGCCUUCAGUAUACUAACACUCAUAUGCUCAGUUUUGUUUUGUUUUGGCAGUUGACAAGAAGUUAAUUUGCUUUAGUAAAAAUCCCUCAUUCCAGCCUUUCUAUAUUGGAAUUCUCGGGUGCCAA: 0.632
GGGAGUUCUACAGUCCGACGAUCUGUGAUAGACAAUUUCAGCUAGCCACAUAUUGUAUUAUGAAAUUCAUAAAGAUUUUCAAUCAUUCAAUUUCAUUUAUCAACUGAAAUUUUGUUUAGUAUGUGAAUUUUUUUGGAAUUCUCGGGUGCCAA: 0.736
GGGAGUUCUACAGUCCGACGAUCCCAGUAUUCUCACUGUCUUCUAUUUCUAGUAGGGAGCUGGAGUCAAAUAACUUGUAUAGAUUUUGGUUACCUACCCUUAAGUUCCCUCCCGUAGAUUAGCCUUUAGAAGUUGGAAUUCUCGGGUGCCAA: 0.482
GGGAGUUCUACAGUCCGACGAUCAGGCUUUUAAGAAACACAGGGUUUUGUAUUCUUUACUAAAGAUAUCAGAGCUCUUAAUGUUGCUUAGAUGAGGGUGACUGUCAAGUACAAGCAAGACUGGGACCUUAGAAUGGAAUUCUCGGGUGCCAA: 0.203
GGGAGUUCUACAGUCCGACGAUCUCACGUGACAUCCCAUUCACUCAUCUACACUAGCCCAGUGCUCCCAUUGUCCCCUGCCUCCUCUGUAAUUUUUGCCCCUUCCAGGGUACGGAAUGUGUCAGUGCAUUUUCUGGAAUUCUCGGGUGCCAA: 0.763
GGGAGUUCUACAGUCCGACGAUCUGAAUUUUGCAAAAUGGGAAAGUGGGCGCUUGCCCAAGGGCCAGGCUGCAUGGAUUCUCACAUCAGAGUUCUCUGGCCCUAGAAAGGCUUAGAAAAGGCGUAAGGGAACUUGGAAUUCUCGGGUGCCAA: 1.67
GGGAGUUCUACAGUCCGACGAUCCAAGAGUCAGGACUUCAGGACUCUGUCCUUCCUUCCCACUCAUCGCCCUUGCAGACAGCGUGUGCUUUGCGAACAGCAGCAGAAGUCACAUUUAGAACAAAAAGGAGGGGUGGAAUUCUCGGGUGCCAA: 0.369

Study 3
Target: CCNA2, cyclin fold, Cln2 fusion (human)
Technique: yeast growth competition, sequencing
Sample: yeast
Setting: strong parent motif
Relative to: not given
Direction: higher = stronger binding
Endpoint: normalised enrichment score
Parent: WEE1 docking peptide (human); HKTFRKLRLFDTP
HKTFRKLRLFYTP [D11Y]: 0.637
HKTFRKLRWFDTP [L9W]: 1.7
HKTGRKLRLFDTP [F4G]: 1.77
HKTFRKLRLFDTL [P13L]: 1.74
HKTFQKLRLFDTP [R5Q]: 1.65
HKTFDKLRLFDTP [R5D]: 1.32
HKTFRKLRLFKTP [D11K]: 1.62
HKTFRKYRLFDTP [L7Y]: 0.935
HKTFRKPRLFDTP [L7P]: 1.26
HKTFRKLRLFDPP [T12P]: 1.36
HITFRKLRLFDTP [K2I]: 0.952
HKTMRKLRLFDTP [F4M]: 2.04
HKTFRYLRLFDTP [K6Y]: 2.44
HKTNRKLRLFDTP [F4N]: 1.83
HKTFRKLRLPDTP [F10P]: 1.51
HKTFRPLRLFDTP [K6P]: 2.98
HKTFRKLHLFDTP [R8H]: 1.45
HKTFRKLRIFDTP [L9I]: 0.931
HFTFRKLRLFDTP [K2F]: 1.69
HKTFRSLRLFDTP [K6S]: 1.37
HKTFRKLRLFDTE [P13E]: 0.893
HKTFRKLRLFDNP [T12N]: 2.41
HHTFRKLRLFDTP [K2H]: 1.03
HKEFRKLRLFDTP [T3E]: 0.63
HKTFRKLRLFDAP [T12A]: 1.39

Study 4
Target: Interferon regulatory factor 7, full length, phosphomimetic (IRF7, Homo sapiens, UniProt Q92985, residues 1-503, S471D/S472D/S475D/S476D/S477D/S483D/S484D/S487D)
UniProt Q92985, sequence (whole entry, unmodified, looked up): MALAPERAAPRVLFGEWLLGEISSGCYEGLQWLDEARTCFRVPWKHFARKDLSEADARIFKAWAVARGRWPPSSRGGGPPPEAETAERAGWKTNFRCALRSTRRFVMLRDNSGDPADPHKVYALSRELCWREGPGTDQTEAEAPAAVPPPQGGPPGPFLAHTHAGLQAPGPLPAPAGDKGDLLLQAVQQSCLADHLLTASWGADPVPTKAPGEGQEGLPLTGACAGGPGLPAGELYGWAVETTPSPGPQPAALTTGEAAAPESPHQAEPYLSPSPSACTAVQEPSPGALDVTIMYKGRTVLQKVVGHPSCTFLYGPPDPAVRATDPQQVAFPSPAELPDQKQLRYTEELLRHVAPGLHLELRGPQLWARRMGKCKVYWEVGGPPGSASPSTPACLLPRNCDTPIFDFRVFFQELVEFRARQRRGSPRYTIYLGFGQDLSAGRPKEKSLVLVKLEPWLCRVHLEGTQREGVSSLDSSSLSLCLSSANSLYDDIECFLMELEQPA
Technique: protein-binding microarray
Form: double-stranded DNA, one strand shown
Sample: in vitro
Concentration: 2200 nM top
Setting: 60-bp whole probe
Added: salmon DNA 0.4 mg/ml
Relative to: random background probes
Direction: higher = stronger binding
Endpoint: fitted relative affinity
All sequences stand within: GCCTAGCAC … GTCTTGATTCGCTTGACGCTGCTG
GACGGTATCGGACAGGGGACGTGCTAG: -0.446 z-score
CTGTTTCTGTGTCACAGAGGGTGCTAG: 2.84 z-score
CGCTTTTTTTTTTTTTTTTTGTGCTAG: 1.74 z-score
TTAGATATCGGGAGTGGATTAGTGCTA: -0.235 z-score
TTAGGTTTCGACTTTCGCTTAGTGCTA: 9.44 z-score
GAGGATTTCGGGACTGGAGACGTGCTA: 0.575 z-score
TTAGGTCTCGGACTGGCTTAGTGCTAG: -0.204 z-score
GATGATCTCAGACTGGAGACGTGCTAG: -0.00231 z-score
GACGGACTGGACCCTGGGGACGTGCTA: -1.13 z-score
GACGGTTTCCGTTCCCTGACGTGCTAG: 5.61 z-score
TCTCTCCCTTTATCTCTTTTGTGCTAG: 2.59 z-score
TTAGATATCGGGTTTCGATTTGTGCTA: 6.73 z-score
GACGGTTTCGGAGTGGGGACGTGCTAG: 2.77 z-score
TAAGATTTCAGTATCGATTAGTGCTAG: 0.691 z-score
TTAGAGTTCAGTATCGATTAGTGCTAG: 0.121 z-score
CTCCCTTGAGGTTTTCTCTGGGTGCTA: -0.0791 z-score
GACGGACTGGGTATGGGGACGTGCTAG: -0.727 z-score
GACGGACTGCTTTTCCTGGCGTGCTAG: 0.359 z-score
TTAGGTATCCACTTTCGGTTAGTGCTA: 8.72 z-score
TGTGGACCTTGGGAGATTTCGTGCTAG: -0.668 z-score
TTAGATTCCCGTTTCGATTAGTGCTAG: 4.29 z-score
GACGGTATCCTTCTCCGGACGTGCTAG: 0.962 z-score
GACGACATCGGGACTGGAGACGTGCTA: -0.382 z-score
ACTAGTTTCTTTTCTTTTCTGTGCTAG: 8.61 z-score
AGAAGATAAGCTGCAAGAAAGTGCTAG: -1.51 z-score

Excerpt of the above (study 3):
HKTFRYLRLFDTP [K6Y]: 2.44
HKTNRKLRLFDTP [F4N]: 1.83
HKTFRKLRLPDTP [F10P]: 1.51
HKTFRPLRLFDTP [K6P]: 2.98
HKTFRKLHLFDTP [R8H]: 1.45
HKTFRKLRIFDTP [L9I]: 0.931
